Results of several laboratories.
Protocols differ between the studies behind these lines. Numbers after ± are the reported error. Values after ≈ are worked out from the molar mass of the structure shown.

Compound	organism	test	system	setting	how to read	endpoint	result
CC(C)CN1C[C@H]2CC[C@@H]3[C@]4(C)COC(C)(C)O[C@@H]4CC[C@@]3(C)[C@@H]2C[C@@H]1C1=CCOC1=O	Human coronavirus 229E	cytopathic effect	MRC5	25 µM, corrected for cytotoxicity		inhibition	32.8%
CC(=Nc1ccc(N=Cc2cnccn2)cc1)N(C)C	Necator americanus		hamster (Mesocricetus auratus), infected	oral, 50 mg/kg single dose, 6 h		anthelmintic rate	98.3 ± 1.7%
O[C@H]1[C@H]2c3cc4c(cc3CN3CCC(=C[C@@H]1O)[C@H]23)OCO4	Mus musculus	gene silencing, high-content imaging	LDR reporter GFP cells	retest run 1		maximal activity	64%
O=c1[nH]c(CCl)nc2scc(-c3ccccc3)c12	Trypanosoma brucei brucei		449 Lister 427 bloodstream form	24 h	relative to: EC50 HEK293 over EC50 T. brucei	selectivity index	8.2 ± 4.2
NS(=O)(=O)c1ccc(-c2cc3ccncc3cc2OCc2ccccc2)cc1	Trypanosoma brucei			unit not given	relative to: pEC50 T. brucei minus pTC50 HepG2	selectivity	> 0.7
COC(=O)[C@H](Cc1ccc(O)cc1)NCc1cc2ccccc2nc1SC	Pseudomonas aeruginosa			8 µg/mL, with: pentamidine 100 µM	relative to: control	growth	43.2%
O=C(O[C@H]1CN[C@H](C#Cc2cc3ncnc(Nc4ccc5c(ccn5Cc5cc(F)ccc5F)c4)c3s2)C1)N1CCOCC1	Trypanosoma brucei			unit not given	relative to: pEC50 T. brucei minus pTC50 HepG2	selectivity	1.4
CC(C)C[C@@H](C=O)NC(=O)[C@H](CC(C)C)NC(=O)[C@H](CC(C)C)NC(=O)OCc1ccccc1	Mus musculus	gene silencing, high-content imaging	LDR reporter GFP cells	retest run 2		AC50	1260 nM
O=C1C(Cl)=C(n2cncn2)C(=O)c2ccccc21	Aspergillus niger		ITCC 7787	10 µg/mL		zone of inhibition	16 mm
COc1cc(Nc2ncc3c(C)nc(-c4cccc(C(F)(F)F)c4)n3n2)cc(OC)c1OC	Trypanosoma brucei			unit not given	relative to: pEC50 T. brucei minus pTC50 HepG2	selectivity	2.5
COc1ccc(OC)c(Nc2nc3nonc3nc2N2CCCC(C)C2)c1 (stereo not shown)	Mus musculus	gene silencing, high-content imaging	LDR reporter GFP cells	retest run 1		maximal activity	13%
CC1(C)OC[C@@]2(C)[C@H]3CC[C@@H]4CN(Cc5ccc(I)cc5)[C@@H](C5=CCOC5=O)C[C@H]4[C@]3(C)CC[C@H]2O1	Human coronavirus 229E	cytopathic effect	MRC5	25 µM, corrected for cytotoxicity		inhibition	84.7%
CC(C)Cc1ccc(C(C)C(=O)O)cc1 (stereo not shown)	Aliivibrio fischeri			500 µM, 15 min	relative to: DMSO	bioluminescence inhibition	60%
O=C(O)CCCCCN1C(=O)/C(=C\c2ccc(-c3ccc(Cl)cc3)o2)SC1=S	Mus musculus	gene silencing, high-content imaging	LDR reporter GFP cells	retest run 2		maximal activity	166%
CC(=O)OC[C@@]1(C)[C@H]2CC[C@@H]3CN(Cc4ccc([N+](=O)[O-])cc4)[C@@H](C4=CCOC4=O)C[C@H]3[C@]2(C)CC[C@H]1OC(C)=O	Human coronavirus 229E	cytopathic effect	MRC5	25 µM, corrected for cytotoxicity		inhibition	46.3%
N=C(N)c1ccc(OCc2ccccc2COc2ccc(C(=N)N)cc2)cc1	Escherichia coli		BW25113	concentration not given, lowest-FICI combination, with: novobiocin		MIC in combination	25 µg/mL
COC(=O)[C@@H](NCc1cc2ccccc2nc1OCc1ccccc1)C(C)C	Pseudomonas aeruginosa			64 µg/mL, with: pentamidine 50 µM	relative to: control	growth	91.7%
COc1ccc(Nc2cnnc3cc(-c4cnc(N5CCCN(C)CC5)nc4)ccc23)cc1Cl	Trypanosoma brucei	cell growth				EC50	260 ± 70 nM
O=c1[nH]c(CCl)nc2scc(-c3ccccc3F)c12	Trypanosoma brucei brucei		449 Lister 427 bloodstream form	24 h	relative to: EC50 HEK293 over EC50 T. brucei	selectivity index	5 ± 1.6

Compound	organism	test	system	setting	how to read	endpoint	result
CC(=O)N1CCC(C(=O)N2CCN3C(=O)c4cc(-c5ccccc5)ccc4NC(=O)C3C2)CC1 (stereo not shown)	Caenorhabditis elegans		N2	12.5 µM		median lifespan	19 days
CC(=O)OC[C@@]1(C)[C@H]2CC[C@@H]3CN(Cc4ccc(C(C)(C)C)cc4)[C@@H](C4=CCOC4=O)C[C@H]3[C@]2(C)CC[C@H]1OC(C)=O	Human coronavirus 229E	cytopathic effect	MRC5	25 µM, corrected for cytotoxicity		inhibition	82.8%
O=C(O[C@@H]1O[C@@H]2COC(=O)c3cc(O)c(O)c(O)c3-c3c(cc(O)c(O)c3O)C(=O)O[C@H]([C@H]1O)[C@@H]2O)c1cc(O)c(O)c(O)c1	Streptococcus mutans			MIC, first 15 min, with: glucose 1%		initial rate of glycolytic pH drop	0.031 pH units/min
COC[C@H]1O[C@@H]2O[C@@H]3[C@@H](OC)[C@@H](OC)[C@@H](O[C@@H]4[C@@H](OC)[C@@H](OC)[C@@H](O[C@@H]5[C@@H](OC)[C@@H](OC)[C@@H](O[C@@H]6[C@@H](OC)[C@@H](OC)[C@@H](O[C@@H]7[C@@H](OC)[C@@H](OC)[C@@H](O[C@@H]1[C@@H](OC)[C@H]2OC)O[C@@H]7COC)O[C@@H]6COC)O[C@@H]5COC)O[C@@H]4COC)O[C@@H]3COC	Escherichia coli	LuxR reporter, agonist	DH5α sensor strain	10 µM		bioluminescence	818 ± 34 RLU
Oc1cc(O)c2c(c1)O[C@H](c1cc(O)c(O)c(O)c1)[C@@H](O)C2	Streptococcus mutans	broth microdilution				MBC/MIC ratio	4
CCn1c(=O)c(-c2cc[nH]n2)cc2c(C)nc(N)nc21	Enterovirus A71		RD infected with EV71	concentration not given		RAN mRNA and protein level	decreased
[O-][S+]1CCN(Cc2ccc(-c3ccc4ncnc(Nc5ccc(OCc6cccc(F)c6)c(Cl)c5)c4c3)o2)CC1	Trypanosoma brucei			unit not given	relative to: pEC50 T. brucei minus pTC50 HepG2	selectivity	> 1.7
C[n+]1cc(NC(=O)c2ccc3ccc4ccc(C(=O)Nc5cc6ccccc6[n+](C)c5)nc4c3n2)cc2ccccc21	Trypanosoma brucei	RNA-seq	Lister 427 bloodstream form	2 × EC50, 4 h, ChIP-seq G4 peak overlap		upregulated G4-containing genes	11 genes
CC(C)CCN1C[C@H]2CC[C@@H]3[C@]4(C)COC(C)(C)O[C@@H]4CC[C@@]3(C)[C@@H]2C[C@@H]1C1=CCOC1=O	Human coronavirus 229E	cytopathic effect	MRC5	25 µM, corrected for cytotoxicity		inhibition	10.3%
CN[C@H](CC(C)C)C(=O)N[C@H]1C(=O)N[C@@H](CC(N)=O)C(=O)N[C@H]2C(=O)N[C@H]3C(=O)N[C@H](C(=O)N[C@H](C(=O)O)c4cc(O)cc(O)c4-c4cc3ccc4O)[C@H](O)c3ccc(c(Cl)c3)Oc3cc2cc(c3O[C@@H]2O[C@H](CO)[C@@H](O)[C@H](O)[C@H]2O[C@H]2C[C@](C)(N)[C@H](O)[C@H](C)O2)Oc2ccc(cc2Cl)[C@H]1O	Streptococcus mutans	broth microdilution	clinical isolate			MIC range	0.5 µg/mL (≈ 0.345 µM)
C=C1C(=O)O[C@@H]2[C@H]3O[C@]3(C)CC/C=C(/C)CC[C@@H]12	Mus musculus	gene silencing, high-content imaging	LDR reporter GFP cells	retest run 2		maximal activity	58%
N=C(N)c1ccc(OCc2cccc(COc3ccc(C(=N)N)cc3)c2)cc1	Escherichia coli	checkerboard	mcr-2 polymyxin-resistant	concentration not given, 20 h, with: rifampicin		MIC of compound in combination	6.25 µg/mL
Cn1nc(-c2ccc(Cl)cc2)nc2c(=O)n(C)c(=O)nc1-2	Mus musculus	gene silencing, high-content imaging	LDR reporter GFP cells	retest run 2		maximal activity	55%
COc1ccc(CN2C[C@H]3CC[C@@H]4[C@](C)(COC(C)=O)[C@H](OC(C)=O)CC[C@@]4(C)[C@@H]3C[C@@H]2C2=CCOC2=O)cc1	Human coronavirus 229E	cytopathic effect	MRC5	25 µM, corrected for cytotoxicity		inhibition	-51.3%
COc1cc2c(cc1Nc1nc(Nc3ccsc3C(N)=O)c3cc[nH]c3n1)N(C(=O)CN(C)C)CCC2(C)C	Trypanosoma brucei			unit not given	relative to: pEC50 T. brucei minus pTC50 HepG2	selectivity	1.5
CN[C@H](CC(C)C)C(=O)N[C@H]1C(=O)N[C@@H](CC(N)=O)C(=O)N[C@H]2C(=O)N[C@H]3C(=O)N[C@H](C(=O)N[C@H](C(=O)O)c4cc(O)cc(O)c4-c4cc3ccc4O)[C@H](O)c3ccc(c(Cl)c3)Oc3cc2cc(c3O[C@@H]2O[C@H](CO)[C@@H](O)[C@H](O)[C@H]2O[C@H]2C[C@](C)(N)[C@H](O)[C@H](C)O2)Oc2ccc(cc2Cl)[C@H]1O	Staphylococcus epidermidis		methicillin-resistant, 10 isolates	serum 75%		MIC50	4 µg/mL (≈ 2.76 µM)
N#Cc1cccc(Nc2nccc(-c3cnn4ncccc34)n2)c1	Trypanosoma brucei			unit not given	relative to: pEC50 T. brucei minus pTC50 HepG2	selectivity	> 4.1
[H]/N=C(\N/C(=N/[H])NCCCCCCNC(=N)NC(=N)Nc1ccc(Cl)cc1)Nc1ccc(Cl)cc1	Streptococcus mutans	glycolytic acid production		MIC, first 15 min, 0.25 h, with: glucose 1%		initial rate of pH drop	0.012 pH unit/min

For quick reference, copied from above:
Compound	organism	test	system	setting	how to read	endpoint	result
O=c1[nH]c(CCl)nc2scc(-c3ccccc3)c12	Trypanosoma brucei brucei		449 Lister 427 bloodstream form	24 h	relative to: EC50 HEK293 over EC50 T. brucei	selectivity index	8.2 ± 4.2
NS(=O)(=O)c1ccc(-c2cc3ccncc3cc2OCc2ccccc2)cc1	Trypanosoma brucei			unit not given	relative to: pEC50 T. brucei minus pTC50 HepG2	selectivity	> 0.7
